Experimental data of several laboratories.
Lines come from different studies, so protocols differ.
Chain of UniProt Q13523 (whole entry, looked up): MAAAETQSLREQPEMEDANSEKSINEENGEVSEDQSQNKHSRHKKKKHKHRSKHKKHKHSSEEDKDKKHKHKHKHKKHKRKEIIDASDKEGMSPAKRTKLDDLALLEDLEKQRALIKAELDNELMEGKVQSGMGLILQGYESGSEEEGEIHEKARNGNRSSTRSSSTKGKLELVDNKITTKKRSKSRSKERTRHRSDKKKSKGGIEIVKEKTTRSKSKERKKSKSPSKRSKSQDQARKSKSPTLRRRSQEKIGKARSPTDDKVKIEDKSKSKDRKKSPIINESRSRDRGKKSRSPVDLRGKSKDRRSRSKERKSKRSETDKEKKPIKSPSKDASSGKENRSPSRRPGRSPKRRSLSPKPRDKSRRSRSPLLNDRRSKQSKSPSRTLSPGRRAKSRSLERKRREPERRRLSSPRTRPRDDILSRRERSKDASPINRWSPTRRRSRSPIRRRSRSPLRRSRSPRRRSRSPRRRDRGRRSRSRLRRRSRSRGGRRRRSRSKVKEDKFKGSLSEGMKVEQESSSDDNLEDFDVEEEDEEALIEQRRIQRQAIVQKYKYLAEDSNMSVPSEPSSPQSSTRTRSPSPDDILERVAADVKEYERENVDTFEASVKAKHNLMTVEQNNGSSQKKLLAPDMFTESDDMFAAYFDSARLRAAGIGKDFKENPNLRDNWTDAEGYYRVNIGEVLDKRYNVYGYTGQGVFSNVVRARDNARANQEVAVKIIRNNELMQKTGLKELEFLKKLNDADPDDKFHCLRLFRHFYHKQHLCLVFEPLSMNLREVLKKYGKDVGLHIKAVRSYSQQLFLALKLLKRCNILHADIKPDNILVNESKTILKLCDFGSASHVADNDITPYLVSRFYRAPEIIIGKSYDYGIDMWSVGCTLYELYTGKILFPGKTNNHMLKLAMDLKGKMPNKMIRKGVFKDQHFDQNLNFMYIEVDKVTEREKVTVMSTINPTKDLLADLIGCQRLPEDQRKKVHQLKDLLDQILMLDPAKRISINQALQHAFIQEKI
Chain of UniProt P36896 (whole entry, looked up): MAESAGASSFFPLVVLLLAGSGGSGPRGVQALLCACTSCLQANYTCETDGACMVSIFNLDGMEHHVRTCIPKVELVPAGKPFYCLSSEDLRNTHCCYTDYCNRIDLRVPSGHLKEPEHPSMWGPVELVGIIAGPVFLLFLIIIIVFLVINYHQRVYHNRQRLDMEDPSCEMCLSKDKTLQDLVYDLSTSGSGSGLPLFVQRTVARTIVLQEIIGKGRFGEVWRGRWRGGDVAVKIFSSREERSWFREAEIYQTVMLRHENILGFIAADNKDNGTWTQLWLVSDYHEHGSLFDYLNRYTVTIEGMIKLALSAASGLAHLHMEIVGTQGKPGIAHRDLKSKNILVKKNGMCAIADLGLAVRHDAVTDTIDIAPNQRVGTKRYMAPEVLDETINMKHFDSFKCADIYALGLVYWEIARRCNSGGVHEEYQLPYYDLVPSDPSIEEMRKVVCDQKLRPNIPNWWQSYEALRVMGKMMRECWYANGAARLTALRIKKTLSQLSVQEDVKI
Chain of UniProt P29597 (whole entry, looked up): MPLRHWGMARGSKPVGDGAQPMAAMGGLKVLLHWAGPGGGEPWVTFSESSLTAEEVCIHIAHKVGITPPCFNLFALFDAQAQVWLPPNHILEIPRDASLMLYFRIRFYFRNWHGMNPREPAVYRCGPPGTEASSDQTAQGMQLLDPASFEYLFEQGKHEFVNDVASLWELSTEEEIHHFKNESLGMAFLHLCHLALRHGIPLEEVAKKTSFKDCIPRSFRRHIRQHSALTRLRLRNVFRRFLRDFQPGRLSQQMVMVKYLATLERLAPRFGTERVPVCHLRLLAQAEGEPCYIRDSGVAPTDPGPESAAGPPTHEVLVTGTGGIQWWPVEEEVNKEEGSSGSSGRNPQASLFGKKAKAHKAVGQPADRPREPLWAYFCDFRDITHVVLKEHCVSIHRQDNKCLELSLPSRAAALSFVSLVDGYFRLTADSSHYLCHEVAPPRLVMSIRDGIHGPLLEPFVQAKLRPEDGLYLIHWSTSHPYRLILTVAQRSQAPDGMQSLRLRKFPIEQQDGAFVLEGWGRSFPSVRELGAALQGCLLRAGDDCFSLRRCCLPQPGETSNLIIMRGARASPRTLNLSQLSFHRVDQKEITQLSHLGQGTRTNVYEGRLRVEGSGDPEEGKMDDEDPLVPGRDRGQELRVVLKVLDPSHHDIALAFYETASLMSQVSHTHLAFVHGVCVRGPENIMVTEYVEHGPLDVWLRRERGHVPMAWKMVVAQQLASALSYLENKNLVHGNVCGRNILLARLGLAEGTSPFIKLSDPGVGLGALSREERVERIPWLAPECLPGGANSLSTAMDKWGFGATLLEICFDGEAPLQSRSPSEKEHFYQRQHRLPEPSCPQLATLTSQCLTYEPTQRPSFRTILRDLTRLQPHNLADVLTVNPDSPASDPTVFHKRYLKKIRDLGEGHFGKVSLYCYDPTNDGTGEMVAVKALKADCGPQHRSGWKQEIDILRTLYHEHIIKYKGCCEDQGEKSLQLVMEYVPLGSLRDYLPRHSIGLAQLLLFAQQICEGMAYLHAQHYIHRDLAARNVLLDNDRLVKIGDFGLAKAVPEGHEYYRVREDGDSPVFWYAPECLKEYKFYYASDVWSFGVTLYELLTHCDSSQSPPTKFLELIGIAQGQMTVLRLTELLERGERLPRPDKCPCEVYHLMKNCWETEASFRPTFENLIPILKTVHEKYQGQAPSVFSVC
Chain of UniProt P49674 (whole entry, looked up): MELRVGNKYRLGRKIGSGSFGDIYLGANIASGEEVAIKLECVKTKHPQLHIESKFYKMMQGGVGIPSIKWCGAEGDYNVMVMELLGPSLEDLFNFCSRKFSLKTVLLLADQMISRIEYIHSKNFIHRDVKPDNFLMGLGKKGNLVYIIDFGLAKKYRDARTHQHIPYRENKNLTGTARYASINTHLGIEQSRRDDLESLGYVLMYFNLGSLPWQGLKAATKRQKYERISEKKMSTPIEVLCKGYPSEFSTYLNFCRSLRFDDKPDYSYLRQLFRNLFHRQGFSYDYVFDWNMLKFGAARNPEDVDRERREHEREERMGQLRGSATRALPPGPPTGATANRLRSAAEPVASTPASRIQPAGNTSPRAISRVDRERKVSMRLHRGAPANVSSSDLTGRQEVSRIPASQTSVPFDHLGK
Chain of UniProt Q16620 (whole entry, looked up): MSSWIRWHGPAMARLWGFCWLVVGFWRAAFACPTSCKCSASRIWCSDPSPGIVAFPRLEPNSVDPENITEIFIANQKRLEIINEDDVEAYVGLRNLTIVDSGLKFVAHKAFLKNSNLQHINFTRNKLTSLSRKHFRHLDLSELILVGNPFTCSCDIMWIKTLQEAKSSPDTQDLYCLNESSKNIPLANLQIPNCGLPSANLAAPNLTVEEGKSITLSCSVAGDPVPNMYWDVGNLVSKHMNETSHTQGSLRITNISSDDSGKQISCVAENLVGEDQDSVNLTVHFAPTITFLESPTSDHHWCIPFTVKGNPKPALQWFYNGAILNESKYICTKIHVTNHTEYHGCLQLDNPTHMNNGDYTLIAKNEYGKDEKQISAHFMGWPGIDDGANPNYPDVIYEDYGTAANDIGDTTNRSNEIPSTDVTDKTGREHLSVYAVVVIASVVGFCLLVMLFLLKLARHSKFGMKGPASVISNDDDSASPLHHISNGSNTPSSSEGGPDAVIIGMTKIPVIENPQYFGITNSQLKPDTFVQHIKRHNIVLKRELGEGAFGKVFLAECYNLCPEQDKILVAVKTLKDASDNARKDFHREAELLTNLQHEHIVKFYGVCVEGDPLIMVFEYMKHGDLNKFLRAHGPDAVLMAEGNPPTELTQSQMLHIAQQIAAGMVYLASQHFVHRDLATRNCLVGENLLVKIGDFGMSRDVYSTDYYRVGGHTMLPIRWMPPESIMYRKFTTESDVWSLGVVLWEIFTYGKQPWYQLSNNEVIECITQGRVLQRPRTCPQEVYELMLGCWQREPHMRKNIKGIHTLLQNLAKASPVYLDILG
Chain of UniProt P07711 (whole entry, looked up): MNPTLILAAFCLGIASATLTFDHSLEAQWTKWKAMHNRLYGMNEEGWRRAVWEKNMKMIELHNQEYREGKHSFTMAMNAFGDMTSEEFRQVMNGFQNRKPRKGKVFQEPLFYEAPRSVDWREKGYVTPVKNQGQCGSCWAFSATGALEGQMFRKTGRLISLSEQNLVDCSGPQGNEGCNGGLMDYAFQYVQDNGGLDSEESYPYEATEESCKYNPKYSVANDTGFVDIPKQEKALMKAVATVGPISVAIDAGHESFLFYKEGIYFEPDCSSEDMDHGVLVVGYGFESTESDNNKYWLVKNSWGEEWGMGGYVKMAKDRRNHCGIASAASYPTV

SMILES | tested on | assay | test system | setting | endpoint | value
CCCCC(=O)Nc1ccc(-c2ccc3ncn(CCC)c(=O)c3c2)cn1 | Serine/threonine-protein kinase PRP4 homolog (PRPF4B, Homo sapiens, UniProt Q13523) | binding, competition with immobilised ligand | – | 0.5 µM | remaining binding | 74%
Nc1ncnc2occ(-c3ccc(NC(=O)Nc4cc(C(F)(F)F)ccc4F)cc3)c12 | Tyrosine-protein kinase ABL1, phosphorylated (ABL1, Homo sapiens, UniProt P00519, Y253F) | cell-free assay, inhibitor | – | 20 µM | remaining signal | 0.25%
Nc1ccn([C@@H]2O[C@H](CO)[C@@H](O)C2(F)F)c(=O)n1 | MCF7 | cell growth or viability, MTT | – | 1.25 µg/mL, 48 h | viability | 55.8%
C1=C/COCc2cc(ccc2OCCN2CCCC2)Nc2nccc(n2)-c2cccc(c2)COC/1 | Non-receptor tyrosine-protein kinase TYK2, JH2 (TYK2, Homo sapiens, UniProt P29597) | cell-free assay | – | 0.1 µM | remaining signal | 2.2%
CC(=NNC(=O)c1ccncc1)c1ccc(Nc2nnc(-c3ccc(Cl)cc3)c3ccccc23)cc1 | MCF7 | cell growth or viability, MTT | – | 0.312 µM, 24 h | viability | 8.41%
COc1cccc(-c2n[nH]c(SCc3ccccn3)n2)c1OC | – | – | female Sprague-Dawley rat, plasma | oral, 10 mg/kg, 4 h, single dose | concentration | 362 ng/mL
COc1cc(-c2cncc3c2CN(C)Cc2cc(N4CCNCC4)ccc2-3)cc(OC)c1OC | TRAF2 and NCK-interacting protein kinase (TNIK, Homo sapiens, UniProt Q9UKE5) | enzyme activity, inhibitor | – | 1 µM | remaining activity | 40%
C=CC(=O)N1CCC(COCC(=O)N2CCN(c3nc(-c4cnc(N)nc4C(F)F)nc(N4CCOC[C@@H]4C)n3)CC2)CC1 | Casein kinase I isoform epsilon (CSNK1E, Homo sapiens, UniProt P49674) | binding, competition with immobilised ligand | – | 1 µM | remaining binding | 90%
O=C(/C=C/c1ccccc1)c1ccc(O)cc1 | Procathepsin L (CTSL, Homo sapiens, UniProt P07711) | enzyme activity, inhibitor | – | 100 µM | remaining activity | 50.2%
O=C1CC[C@H](N2Cc3cc(N4CCN(CC5CCN(c6ccc([C@@H]7c8ccc(O)cc8CC[C@@H]7c7ccccc7)cc6)CC5)CC4)ccc3C2=O)C(=O)N1 | – | – | Sprague-Dawley rat, liver microsomes | 2.5 µM, 6 h | fraction unbound | 0.11
CNc1ncc2c(/C=C/C(=O)N3CCC(OC)CC3)nn(Cc3cccc(C(F)(F)F)c3)c2n1 | BDNF/NT-3 growth factors receptor (NTRK2, Homo sapiens, UniProt Q16620) | enzyme activity, inhibitor, radiometric | – | 1 µM | remaining activity | 76%
Cc1cc([C@@H](C)Nc2ccccc2C(=O)O)c2nc(N3CCC(F)(F)CC3)c(C#N)c(=O)n2c1 | Activin receptor type-1B (ACVR1B, Homo sapiens, UniProt P36896) | binding, competition with immobilised ligand | – | 10 µM | remaining binding | 100%

Excerpt of the above:
SMILES | tested on | assay | test system | setting | endpoint | value
Nc1ccn([C@@H]2O[C@H](CO)[C@@H](O)C2(F)F)c(=O)n1 | MCF7 | cell growth or viability, MTT | – | 1.25 µg/mL, 48 h | viability | 55.8%
C1=C/COCc2cc(ccc2OCCN2CCCC2)Nc2nccc(n2)-c2cccc(c2)COC/1 | Non-receptor tyrosine-protein kinase TYK2, JH2 (TYK2, Homo sapiens, UniProt P29597) | cell-free assay | – | 0.1 µM | remaining signal | 2.2%
